Experimental data from different studies.
Each numbered part is a random draw from the data of one study; scales do not carry over between parts.
Sequence of UniProt P51679 (whole entry, looked up): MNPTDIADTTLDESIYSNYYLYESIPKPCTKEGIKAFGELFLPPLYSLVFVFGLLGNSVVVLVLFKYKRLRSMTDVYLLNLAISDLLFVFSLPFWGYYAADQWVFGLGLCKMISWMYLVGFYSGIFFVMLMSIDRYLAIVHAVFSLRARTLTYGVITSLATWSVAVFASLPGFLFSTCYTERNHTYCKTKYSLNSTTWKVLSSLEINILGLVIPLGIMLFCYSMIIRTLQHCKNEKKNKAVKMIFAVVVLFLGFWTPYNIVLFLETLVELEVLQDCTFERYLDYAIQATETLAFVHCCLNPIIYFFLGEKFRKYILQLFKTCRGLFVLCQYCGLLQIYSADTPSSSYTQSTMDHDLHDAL
Sequence of UniProt Q8NFN8 (whole entry, looked up): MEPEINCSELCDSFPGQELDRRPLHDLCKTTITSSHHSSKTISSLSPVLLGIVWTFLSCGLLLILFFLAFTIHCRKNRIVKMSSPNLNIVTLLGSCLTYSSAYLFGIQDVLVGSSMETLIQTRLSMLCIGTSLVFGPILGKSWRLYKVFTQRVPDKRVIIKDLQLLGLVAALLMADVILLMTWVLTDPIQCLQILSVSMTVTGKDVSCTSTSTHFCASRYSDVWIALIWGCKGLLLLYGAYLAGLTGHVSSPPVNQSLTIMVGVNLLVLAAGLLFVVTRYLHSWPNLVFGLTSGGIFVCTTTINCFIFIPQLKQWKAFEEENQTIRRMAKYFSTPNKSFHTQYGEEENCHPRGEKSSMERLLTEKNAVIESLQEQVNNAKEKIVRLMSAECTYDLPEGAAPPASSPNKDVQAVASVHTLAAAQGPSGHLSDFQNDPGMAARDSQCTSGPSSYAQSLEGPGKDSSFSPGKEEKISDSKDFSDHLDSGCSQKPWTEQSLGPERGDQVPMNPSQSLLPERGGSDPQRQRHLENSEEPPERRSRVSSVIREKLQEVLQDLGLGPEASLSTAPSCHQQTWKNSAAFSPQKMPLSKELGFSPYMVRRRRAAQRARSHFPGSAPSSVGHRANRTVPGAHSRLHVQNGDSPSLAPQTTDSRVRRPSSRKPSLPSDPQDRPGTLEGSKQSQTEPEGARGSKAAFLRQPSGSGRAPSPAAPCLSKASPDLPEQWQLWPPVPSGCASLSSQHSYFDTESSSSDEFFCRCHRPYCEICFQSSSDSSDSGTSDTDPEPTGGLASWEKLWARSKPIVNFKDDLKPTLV
Sequence of UniProt Q8TDS4 (whole entry, looked up): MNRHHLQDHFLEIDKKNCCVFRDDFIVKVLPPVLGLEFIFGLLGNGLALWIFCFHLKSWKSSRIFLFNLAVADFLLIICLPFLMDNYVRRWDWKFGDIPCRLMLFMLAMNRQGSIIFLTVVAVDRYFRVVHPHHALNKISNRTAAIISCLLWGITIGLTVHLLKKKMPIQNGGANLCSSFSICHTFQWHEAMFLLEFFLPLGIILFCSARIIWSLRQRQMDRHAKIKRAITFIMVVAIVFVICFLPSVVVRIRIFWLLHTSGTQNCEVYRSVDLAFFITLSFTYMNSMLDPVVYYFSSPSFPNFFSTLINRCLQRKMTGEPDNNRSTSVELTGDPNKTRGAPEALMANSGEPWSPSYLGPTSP
Sequence of UniProt Q8N6U8 (whole entry, looked up): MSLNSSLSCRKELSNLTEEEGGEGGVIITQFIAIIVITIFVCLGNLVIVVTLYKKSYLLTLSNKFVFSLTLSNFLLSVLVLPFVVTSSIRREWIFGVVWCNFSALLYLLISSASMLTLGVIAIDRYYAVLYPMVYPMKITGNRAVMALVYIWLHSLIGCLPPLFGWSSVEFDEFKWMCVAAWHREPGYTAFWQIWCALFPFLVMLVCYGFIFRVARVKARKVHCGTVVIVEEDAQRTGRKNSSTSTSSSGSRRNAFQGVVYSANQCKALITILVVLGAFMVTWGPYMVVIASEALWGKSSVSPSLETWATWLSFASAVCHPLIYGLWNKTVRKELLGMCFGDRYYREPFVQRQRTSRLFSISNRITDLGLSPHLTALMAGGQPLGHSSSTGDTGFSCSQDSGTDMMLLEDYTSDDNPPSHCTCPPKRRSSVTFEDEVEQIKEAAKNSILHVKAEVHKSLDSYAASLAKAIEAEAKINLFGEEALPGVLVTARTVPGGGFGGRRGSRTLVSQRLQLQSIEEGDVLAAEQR
Sequence of UniProt P35367 (whole entry, looked up): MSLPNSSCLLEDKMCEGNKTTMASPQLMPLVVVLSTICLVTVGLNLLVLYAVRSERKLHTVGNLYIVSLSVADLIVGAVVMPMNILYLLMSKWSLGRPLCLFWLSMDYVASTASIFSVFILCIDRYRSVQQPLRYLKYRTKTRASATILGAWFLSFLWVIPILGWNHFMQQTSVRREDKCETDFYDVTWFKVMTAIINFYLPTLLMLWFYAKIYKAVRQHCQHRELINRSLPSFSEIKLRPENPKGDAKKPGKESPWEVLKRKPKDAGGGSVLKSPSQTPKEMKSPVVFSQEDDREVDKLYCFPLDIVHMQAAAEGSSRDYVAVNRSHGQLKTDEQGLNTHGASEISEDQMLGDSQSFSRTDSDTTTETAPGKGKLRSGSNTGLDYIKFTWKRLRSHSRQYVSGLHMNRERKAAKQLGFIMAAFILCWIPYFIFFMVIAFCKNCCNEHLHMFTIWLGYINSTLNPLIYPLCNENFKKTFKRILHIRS
Sequence of UniProt Q92847 (whole entry, looked up): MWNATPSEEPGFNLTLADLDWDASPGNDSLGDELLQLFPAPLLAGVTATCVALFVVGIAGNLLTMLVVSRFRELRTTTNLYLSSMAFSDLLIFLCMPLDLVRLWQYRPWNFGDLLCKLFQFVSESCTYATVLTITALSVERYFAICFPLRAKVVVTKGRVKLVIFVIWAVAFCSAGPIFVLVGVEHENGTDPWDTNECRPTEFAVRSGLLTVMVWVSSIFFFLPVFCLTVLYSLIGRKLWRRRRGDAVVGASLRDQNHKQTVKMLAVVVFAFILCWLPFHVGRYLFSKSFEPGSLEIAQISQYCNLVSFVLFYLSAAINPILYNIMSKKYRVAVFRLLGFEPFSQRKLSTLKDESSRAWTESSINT
Sequence of UniProt P46095 (whole entry, looked up): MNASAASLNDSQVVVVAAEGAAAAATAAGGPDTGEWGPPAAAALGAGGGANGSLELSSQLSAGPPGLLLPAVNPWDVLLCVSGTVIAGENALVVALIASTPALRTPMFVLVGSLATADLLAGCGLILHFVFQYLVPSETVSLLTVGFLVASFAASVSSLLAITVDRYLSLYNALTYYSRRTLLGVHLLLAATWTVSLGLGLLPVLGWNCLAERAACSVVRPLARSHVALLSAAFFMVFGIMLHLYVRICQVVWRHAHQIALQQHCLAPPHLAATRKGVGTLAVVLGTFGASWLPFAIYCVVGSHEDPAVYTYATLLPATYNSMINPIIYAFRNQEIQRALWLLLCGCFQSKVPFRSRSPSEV

Study 1 — effect on: enzyme activity; action: inhibitor; concentration: 0.5 µM; reference: control
Target: Tyrosine-protein kinase Yes (YES1, Homo sapiens, UniProt P07947)
Sequence of UniProt P07947 (whole entry, looked up): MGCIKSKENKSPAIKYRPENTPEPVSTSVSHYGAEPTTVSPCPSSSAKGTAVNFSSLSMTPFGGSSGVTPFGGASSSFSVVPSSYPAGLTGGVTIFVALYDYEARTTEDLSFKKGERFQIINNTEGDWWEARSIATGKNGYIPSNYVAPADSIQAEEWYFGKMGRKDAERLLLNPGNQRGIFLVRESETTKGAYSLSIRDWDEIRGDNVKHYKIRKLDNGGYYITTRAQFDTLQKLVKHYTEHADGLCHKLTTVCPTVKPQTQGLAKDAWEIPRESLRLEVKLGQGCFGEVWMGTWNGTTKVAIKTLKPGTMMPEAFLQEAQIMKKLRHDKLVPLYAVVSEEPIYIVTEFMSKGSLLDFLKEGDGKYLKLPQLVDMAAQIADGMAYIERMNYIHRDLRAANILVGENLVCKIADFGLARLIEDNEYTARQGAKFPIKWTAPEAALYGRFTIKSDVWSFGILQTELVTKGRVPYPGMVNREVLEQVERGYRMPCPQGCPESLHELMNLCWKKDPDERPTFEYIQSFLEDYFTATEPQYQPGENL
`O=C(c1cc2cc(O)ccc2[nH]1)c1cc2cc(O)ccc2[nH]1` has a remaining activity of 18.8%.
`c1ccc(-c2n[nH]c3c2oc2ccccc23)cc1` gave a remaining activity of 86.1%.
`O=C1Cc2c([nH]c3ccc(Br)cc23)-c2ccccc2N1` has a remaining activity of 59.1%.
The remaining activity of `Cc1ccc(S(=O)(=O)/C=C/C#N)cc1` is reported as 94.2%.
`N#Cc1cnc2cnc(NCc3cccnc3)cc2c1Nc1ccc(F)c(Cl)c1` gave a remaining activity of 93.6%.
With `O=C1Nc2ccc(Br)cc2/C1=C/c1cc2c([nH]1)CCCC2` the remaining activity was 67.2%.
`O=Nc1c(-c2c(O)[nH]c3cc(Br)ccc23)[nH]c2ccccc12` gave a remaining activity of 15.8%.
`O=C1Nc2ccccc2/C1=C\c1c(Cl)[nH]c2ccccc12` gave a remaining activity of 93.9%.
With `O=C1NC(=O)c2c1c1c3ccccc3[nH]c1n1cncc21` the remaining activity was 79.9%.
The remaining activity of `O=c1cc(N2CCOCC2)oc2c(-c3ccccc3)cccc12` is reported as 101%.
`CN(C)S(=O)(=O)c1ccc2c(c1)/C(=C/c1cc3c([nH]1)CCCC3)C(=O)N2` gave a remaining activity of 13.5%.
With `COc1ccc(COc2ccc(Cc3cnc(N)nc3N)cc2OC)cc1` the remaining activity was 94.8%.
`CCCNC(=O)Nc1ccc(Oc2ncnc3cc(OC)c(OC)cc23)cc1Cl` has a remaining activity of 82.1%.
The remaining activity of `Oc1cccc(-c2nc(N3CCOCC3)c3oc4ncccc4c3n2)c1` is reported as 94.3%.
With `COc1ccc2c(c1)c(C1=C(c3c[nH]c4ccccc34)C(=O)NC1=O)cn2CCCN(C)C` the remaining activity was 90.4%.
For `O=C1NC(=O)c2c1c1c3ccccc3[nH]c1c1[nH]c3cc(Br)ccc3c21`, the remaining activity was 88.4%.
For `COc1cccc(-c2cc(=O)c3ccccc3o2)c1N`, the remaining activity was 93.5%.
The remaining activity of `c1ccc2c(-c3ccncc3)c[nH]c2c1` is reported as 97.1%.
`CN1CCN(c2ccc3nc(-c4c(N)c5c(F)cccc5[nH]c4=O)[nH]c3c2)CC1` has a remaining activity of 6.3%.
The remaining activity of `Cc1cc(Nc2cc(N3CCN(C)CC3)nc(Sc3ccc(NC(=O)C4CC4)cc3)n2)[nH]n1` is reported as 33.9%.
`CCCCc1c(-c2ccc(OC)cc2)[nH]c2nccnc12` gave a remaining activity of 45.7%.

Study 2 — effect on: enzyme activity; action: inhibitor; concentration: 10 µM
Target: Calcium/calmodulin-dependent protein kinase type II subunit alpha (CAMK2A, Homo sapiens, UniProt Q9UQM7)
Sequence of UniProt Q9UQM7 (whole entry, looked up): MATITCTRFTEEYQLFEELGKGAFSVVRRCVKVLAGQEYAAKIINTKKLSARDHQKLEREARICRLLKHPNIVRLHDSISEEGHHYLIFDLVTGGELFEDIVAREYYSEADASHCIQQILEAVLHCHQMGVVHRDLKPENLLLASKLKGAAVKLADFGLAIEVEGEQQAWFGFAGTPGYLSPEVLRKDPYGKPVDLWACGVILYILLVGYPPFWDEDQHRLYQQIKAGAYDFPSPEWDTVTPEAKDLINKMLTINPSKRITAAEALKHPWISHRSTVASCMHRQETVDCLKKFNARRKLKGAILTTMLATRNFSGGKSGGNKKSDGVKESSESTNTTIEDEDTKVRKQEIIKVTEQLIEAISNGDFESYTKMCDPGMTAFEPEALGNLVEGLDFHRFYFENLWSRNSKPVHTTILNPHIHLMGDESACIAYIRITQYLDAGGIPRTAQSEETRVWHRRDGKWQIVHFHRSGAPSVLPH
`O=C(O)/C=C\C(=O)O` has an inhibition of 9%.
For `COc1c(O)c2c(=O)cc(OC)c3c4c(OC)cc(=O)c5c(O)c(OC)c6c(c(c1C[C@@](C)(O)[C@H]6C(C)=O)c23)c54`, the inhibition was 52%.
For `C=C1CC/C=C(\C)CC[C@@H]2[C@@H]1CC2(C)C`, the inhibition was 1%.
With `c1ccc(CNc2ncnc3[nH]cnc23)cc1` the inhibition was -14%.
For `C=C[C@H]1[C@H](O[C@@H]2O[C@H](CO)[C@@H](O)[C@H](O)[C@H]2O)OC=C(C(=O)OC)[C@H]1CC(=O)O`, the inhibition was 5%.
With `O=c1c(O[C@@H]2O[C@H](CO)[C@@H](O)[C@H](O)[C@H]2O[C@@H]2O[C@H](CO)[C@@H](O)[C@H](O)[C@H]2O)c(-c2ccc(O)c(O)c2)oc2cc(O)cc(O)c12` the inhibition was -41%.
With `CCCCCCCC(=O)OCC(COC(=O)CCCCCCC)OC(=O)CCCCCCC` the inhibition was 4%.
`N[C@@H](Cn1ccc(=O)c(O)c1)C(=O)O` gave an inhibition of 2%.
`CC(C)C1=CC(=O)[C@@](C)([C@H]2[C@H](O)C[C@@]3(C)[C@@H]4CC=C5[C@@H](CC[C@@H](O[C@@H]6O[C@H](CO)[C@@H](O)[C@H](O)[C@H]6O[C@@H]6O[C@@H](C)[C@H](O)[C@@H](O)[C@H]6O)C5(C)C)[C@]4(C)C(=O)C[C@]23C)O1` gave an inhibition of -14%.
With `O=C(O)CCCCCCCCCCCCCCC(=O)O` the inhibition was 2%.
`CCOc1ccc(Cc2cc([C@@H]3O[C@H](SC)[C@@H](O)[C@H](O)[C@H]3O)ccc2Cl)cc1` has an inhibition of -12%.
`OC[C@@H](O)[C@@H](O[C@H]1O[C@H](CO)[C@@H](O)[C@H](O)[C@H]1O)[C@H](O)[C@@H](O)CO` has an inhibition of -18%.
With `O=C(O)c1ccc(C(=O)O)o1` the inhibition was -6%.
With `O=C(O)CC(=O)OC[C@H]1O[C@@H](Oc2c(-c3ccc(O)c(O)c3)oc3cc(O)cc(O)c3c2=O)[C@H](O)[C@@H](O)[C@@H]1O` the inhibition was 0%.

Study 3 — effect on: β-arrestin recruitment; action: agonist; technique: PRESTO-Tango; concentration: 10 µM; reference: untreated
Structure (SMILES): N=C(N)NC(=O)c1cnn(-c2cccc3ncccc23)c1C1CC1
The “fold over basal” was 1.03 (S1PR1 (Homo sapiens, UniProt P21453)).
Melatonin-related receptor (GPR50, Homo sapiens, UniProt Q13585) — “fold over basal”: 1.07.
Probable G-protein coupled receptor 156 (GPR156, Homo sapiens, UniProt Q8NFN8) — “fold over basal”: 1.01.
It gave 1.1 for “fold over basal” (C5AR2 (Homo sapiens, UniProt Q9P296)).
For HRH1 (Homo sapiens, UniProt P35367): “fold over basal” read 1.05 fold.
It gave 0.67 for “fold over basal” (Probable G-protein coupled receptor 63 (GPR63, Homo sapiens, UniProt Q9BZJ6)).
For P2Y purinoceptor 12 (P2RY12, Homo sapiens, UniProt Q9H244): “fold over basal” read 1.13.
HCAR1 (Homo sapiens, UniProt Q9BXC0) — “fold over basal”: 0.72 fold.
For CXCR3 (Homo sapiens, UniProt P49682): “fold over basal” read 0.97.
HCAR2 (Homo sapiens, UniProt Q8TDS4) — “fold over basal”: 0.85 fold.
It gave 1.23 fold for “fold over basal” (GHSR (Homo sapiens, UniProt Q92847)).
It gave 1.01 for “fold over basal” (G-protein coupled receptor 161 (GPR161, Homo sapiens, UniProt Q8N6U8)).
LHCGR (Homo sapiens, UniProt P22888) — “fold over basal”: 1.04 fold.
The “fold over basal” was 0.86 (P2Y purinoceptor 2 (P2RY2, Homo sapiens, UniProt P41231)).
G-protein coupled receptor 6 (Homo sapiens, UniProt P46095) — “fold over basal”: 1.09.
The “fold over basal” was 1.17 (C-C chemokine receptor-like 2 (Homo sapiens, UniProt O00421)).
It gave 1.29 for “fold over basal” (MC2R (Homo sapiens, UniProt Q01718)).
The “fold over basal” was 0.8 (CCR4 (Homo sapiens, UniProt P51679)).
ADORA2A (Homo sapiens, UniProt P29274) — “fold over basal”: 1.33.
Adhesion G protein-coupled receptor L4 (ADGRL4, Homo sapiens, UniProt Q9HBW9) — “fold over basal”: 1.25.

Study 4 — effect on: ligand displacement; concentration: 10 µM
Target: Muscarinic acetylcholine receptor M5 (CHRM5, Homo sapiens, UniProt P08912)
Sequence of UniProt P08912 (whole entry, looked up): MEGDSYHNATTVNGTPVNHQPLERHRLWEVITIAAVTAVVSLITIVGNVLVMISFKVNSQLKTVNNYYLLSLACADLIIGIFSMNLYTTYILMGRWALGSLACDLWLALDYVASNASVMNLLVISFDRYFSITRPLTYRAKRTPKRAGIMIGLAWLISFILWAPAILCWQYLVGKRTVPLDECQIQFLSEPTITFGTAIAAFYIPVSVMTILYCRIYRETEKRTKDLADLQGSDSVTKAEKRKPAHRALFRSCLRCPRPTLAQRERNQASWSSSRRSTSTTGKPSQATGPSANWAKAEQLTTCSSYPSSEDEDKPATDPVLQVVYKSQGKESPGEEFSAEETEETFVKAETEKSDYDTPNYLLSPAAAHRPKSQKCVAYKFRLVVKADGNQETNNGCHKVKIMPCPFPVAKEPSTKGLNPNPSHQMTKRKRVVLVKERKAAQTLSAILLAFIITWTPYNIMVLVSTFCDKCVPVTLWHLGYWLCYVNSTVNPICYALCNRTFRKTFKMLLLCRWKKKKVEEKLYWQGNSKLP
The inhibition of `CN1CCN(C(=O)C(C)(C)c2ccc(C(=O)Nc3cn4cc(-c5cc(C(C)(C)C)cc(C(C)(C)C)c5)ccc4n3)cc2)CC1` is reported as 30.8%.
With `Nc1cnc(N2CCc3cc(S(=O)(=O)Nc4c(F)cc(Cl)cc4F)cc(N4CCCC4=O)c32)nc1` the inhibition was 1.45%.
`CNC(=O)Nc1ccc2c(c1)CC[C@]21OC(=O)N(CC(=O)N(Cc2ccc(F)cc2)[C@@H](C)C(F)(F)F)C1=O` has an inhibition of 2.39%.
With `CN1CCN(c2cnc3c(C4CCN(C(=O)c5ccc(OC(F)(F)F)cc5N)CC4)ncnc3c2)CC1` the inhibition was 2.02%.
For `Cc1ccccc1Oc1cc(-n2c(=O)cc(C(F)(F)F)[nH]c2=O)c2ccccc2c1Cl`, the inhibition was -5.66%.
For `O=C(Nc1ccc(Oc2ccc(F)cc2)cc1)N1CCc2ncccc2[C@H]1c1ccc(F)cc1`, the inhibition was -1.7%.
With `CCC(F)(F)c1cc(N2CCC(S(C)(=O)=O)CC2)nc2sc(C(N)=O)c(N)c12` the inhibition was -10.3%.
The inhibition of `Nc1nc(NCc2ccccc2)nc(-c2ccccc2CO)n1` is reported as -25.8%.
`Nc1nc(NCc2ccccc2)nc(-c2cccc(CO)c2)n1` has an inhibition of 8.68%.
For `COc1cc(C(=O)O)ncc1C#Cc1ccccc1NS(=O)(=O)c1cccc2c(N(C)C)ccnc12`, the inhibition was -3.36%.
For `CC(=O)N1CCC(c2ccc(C(=O)NC3=NCCN3)cc2C(F)(F)F)CC1`, the inhibition was 14.9%.
With `CN(C)c1ncnc(-c2ccc3nc(Nc4cc(CN5CCN(C(=O)CC(F)(F)F)CC5)ccn4)[nH]c3c2)c1Cl` the inhibition was 12.4%.
`Cc1cc(Nc2nccc(C)n2)cc(-c2cnc([C@@]3(O)CC[C@H](C(=O)O)C(C)(C)C3)s2)c1` has an inhibition of 0.943%.
`C[C@@H]1CN(c2cc(-c3n[nH]c4ccc(OC5(C)CC5)cc34)ncn2)C[C@H](C)O1` gave an inhibition of 1%.
`O=C(NCCCC1CCCCC1)c1ccc(CNC(=O)c2cnn(-c3ccccc3)c2C(F)(F)F)cc1` has an inhibition of -4.46%.
The inhibition of `CN1CCN(c2ccnc(NCCc3ccccc3)n2)CC1` is reported as 6.46%.
`Cn1nc(C(=O)NCc2ccc(C(=O)O)cc2)cc1-c1ccc2[nH]ccc2c1` has an inhibition of -7.43%.
The inhibition of `CN([C@@H]1CCc2c(CC(=O)O)c3ccccc3n2C1)S(=O)(=O)c1ccc(F)cc1` is reported as 6.97%.
`CC1CCN(c2ccnc(NCc3cn(C)cn3)n2)CC1` has an inhibition of 25.1%.
`NC(=O)c1ccc2nc(-c3ccc(C4(N)CCC4)cc3)c(-c3ccccc3)n2n1` gave an inhibition of 1.83%.

A few entries again (study 1):
The remaining activity of `Oc1cccc(-c2nc(N3CCOCC3)c3oc4ncccc4c3n2)c1` is reported as 94.3%.
With `COc1ccc2c(c1)c(C1=C(c3c[nH]c4ccccc34)C(=O)NC1=O)cn2CCCN(C)C` the remaining activity was 90.4%.
For `O=C1NC(=O)c2c1c1c3ccccc3[nH]c1c1[nH]c3cc(Br)ccc3c21`, the remaining activity was 88.4%.
For `COc1cccc(-c2cc(=O)c3ccccc3o2)c1N`, the remaining activity was 93.5%.
The remaining activity of `c1ccc2c(-c3ccncc3)c[nH]c2c1` is reported as 97.1%.
`CN1CCN(c2ccc3nc(-c4c(N)c5c(F)cccc5[nH]c4=O)[nH]c3c2)CC1` has a remaining activity of 6.3%.
The remaining activity of `Cc1cc(Nc2cc(N3CCN(C)CC3)nc(Sc3ccc(NC(=O)C4CC4)cc3)n2)[nH]n1` is reported as 33.9%.
`CCCCc1c(-c2ccc(OC)cc2)[nH]c2nccnc12` gave a remaining activity of 45.7%.
